Assay results from different studies.
Values joined by “and” are separate records of one study, mostly repeats; a detail may differ. ± gives the spread as reported. ≈ marks a conversion by molar mass, not a printed value.
Chain of UniProt P38646 (whole entry, looked up): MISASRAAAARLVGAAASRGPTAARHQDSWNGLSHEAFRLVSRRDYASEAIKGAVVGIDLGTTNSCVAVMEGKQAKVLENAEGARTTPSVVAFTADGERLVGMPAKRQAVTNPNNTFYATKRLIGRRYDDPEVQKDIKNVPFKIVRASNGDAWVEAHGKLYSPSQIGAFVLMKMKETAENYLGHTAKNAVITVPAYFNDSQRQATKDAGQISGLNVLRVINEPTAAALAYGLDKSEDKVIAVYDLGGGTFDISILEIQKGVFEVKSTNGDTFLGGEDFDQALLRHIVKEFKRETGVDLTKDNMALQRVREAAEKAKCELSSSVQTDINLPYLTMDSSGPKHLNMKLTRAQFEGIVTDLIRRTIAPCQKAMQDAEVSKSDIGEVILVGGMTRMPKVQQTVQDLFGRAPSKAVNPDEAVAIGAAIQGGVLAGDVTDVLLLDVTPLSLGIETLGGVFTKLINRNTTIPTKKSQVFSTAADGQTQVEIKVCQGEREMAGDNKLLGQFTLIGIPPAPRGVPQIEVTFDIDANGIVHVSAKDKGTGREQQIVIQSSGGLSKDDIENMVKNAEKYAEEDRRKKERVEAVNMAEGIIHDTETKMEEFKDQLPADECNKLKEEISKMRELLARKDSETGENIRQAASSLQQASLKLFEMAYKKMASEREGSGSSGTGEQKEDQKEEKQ

`O=S(=O)([O-])CCSSCCS(=O)(=O)[O-].[Na+].[Na+]` has a maximum inhibition of 0% (human coronavirus OC43; virus-induced cell killing; MRC-5; maximum over 10 doses).
For `OC[C@H]1O[C@@H](n2ccc3c(SCc4ccc(Cl)c(Cl)c4)ncnc32)[C@H](O)[C@@H]1O`, the survival was 3.3% (Toxoplasma gondii; [3H]uracil incorporation; human fibroblasts, RH wild type; 50 µM).
`CC[C@H](C)[C@@H]1NC(=O)[C@@H]2CCCN2C(=O)[C@H](CC(C)C)NC(=O)[C@H](CC(C)C)NC(=O)CNC(=O)[C@@H](NC(=O)[C@@H](NC(=O)[C@H](CC(=O)O)NC(=O)CNC(=O)[C@@H](NC(=O)[C@H](C)NC(=O)CNC(=O)[C@H](CCCCN)NC(=O)[C@H](CC(C)C)NC(=O)[C@H](CC(C)C)NC(=O)[C@H](CCCCN)NC(=O)CNC(=O)[C@@H](NC(=O)[C@@H](N)CC(C)C)C(C)C)C(C)C)C(C)C)CSSC[C@@H](C(=O)O)NC1=O` — result for “log2 fold change”: -5.47 (RNA-seq, measured: Ly6i mRNA; mouse traumatic brain injury, frontal cortex and hippocampus; dose not given; reference: TBI plus compound vs TBI).
For `COc1c(CCC[P+](c2ccccc2)(c2ccccc2)c2ccccc2)cc2c(c1OC)OCO2.[I-]`, the GI50 was -5.27 log M (ACHN; SRB).
`CN[C@@H](C)C(=O)N[C@H](C(=O)N1CCC[C@H]1C(=O)N[C@H](C(=O)NCCCCCCNC(=O)[C@@H](NC(=O)[C@@H]1CCCN1C(=O)[C@@H](NC(=O)[C@H](C)NC)C1CCCCC1)C(c1ccccc1)c1ccccc1)C(c1ccccc1)c1ccccc1)C1CCCCC1` has a maximum inhibition of 0% (human coronavirus OC43; virus-induced cell killing; MRC-5; maximum over 10 doses).
The IC50 of `COc1ccc(C[C@H](NC(=O)[C@H](C)NC(=O)CN2CCOCC2)C(=O)N[C@@H](Cc2ccccc2)C(=O)C2(C)CO2)cc1` (stereo in doubt) is reported as 0.0133 ± 0.0021 µM (Plasmodium falciparum; parasite growth; Dd2 R539T, artemisinin-resistant; 72 h, ring stage).
For `CN1CC[C@@]2(C)c3cc(OC(=O)Nc4ccccc4)ccc3N(C)[C@@H]12`, the EC50 was 38.2 µM (Toxoplasma gondii; parasite growth; HFF, bradyzoite, alkaline-induced).
`C[C@@H]1C[C@@H]([C@H](O)CC2CC(=O)NC(=O)C2)C(=O)[C@@H](C)C1` gave an Emax of 26% (Mus musculus; gene silencing, high-content imaging; LDR reporter GFP cells; 30 h, retest run 1).
`CS(=O)(=O)CCCn1c(Cn2c(=O)n(CC(F)(F)F)c3ccncc32)cc2cc(Cl)ccc21` — result for “LS mean viral load change”: -5.8 log10 copies/mL (respiratory syncytial virus; RT-qPCR; hospitalized infants 1-24 months, nasal swab; oral, 6, 4.5 or 3 mg/kg daily, day 6, mid dose by age cohort; reference: baseline).
With `COC(=O)[C@@H]1[C@@H](c2ccccc2)[C@]2(c3ccc(OC)cc3)Oc3cc(OC)cc(OC)c3[C@@]23N=C(C)N[C@@]13O` the EC50 was 0.00098 µM (Hepatitis E virus; viral replication; HepG2 HEV-1 replicon, genotype 1; 48 h).
With `O=[N+]([O-])c1cc2cc3ccc4oc([N+](=O)[O-])cc4c3cc2o1` the MIC90 was 32 µg/mL (≈ 107 µM) (Mycobacteroides abscessus; REMA; ATCC 19977).
`COc1cc(CCC[P+](c2ccccc2)(c2ccccc2)c2ccccc2)c(OC)c2c1OCO2.[I-]` gave a GI50 of -5.4 log M (A549; NCI60 SRB).
For `CCC1CCCCN1CCCNC(=O)c1sc2nc(C)cc(C)c2c1-n1cccc1` (stereo not shown), the maximum response was -8.84% (Vero-E6; CellTiter-Glo ATP; 72 h, retest 8-point duplicates; reference: DMSO 0%, hyamine -100%, more negative, more toxic).
With `C[C@@H]1CN(c2cc(-c3n[nH]c4ccc(OC5(C)CC5)cc34)ncn2)C[C@H](C)O1` the inhibition was 37% (mouse hepatitis virus; viral replication; nanoluciferase reporter; 1 µM).
`COc1ccc(NC(=O)N2CCCCN3[C@H](CN(C)C)[C@H](c4ccc(C#Cc5ccccc5)cc4)[C@@H]3C2)cc1`: inhibition “inhibited” (Toxoplasma gondii; ex vivo bradyzoite plaques; ME49; 3 times EC90, continuous exposure).
For `NC(=O)NO`, the maximum inhibition was 31.7% (human coronavirus OC43; virus-induced cell killing; MRC-5; screen).
`CC[C@H](C)[C@H](NC(=O)[C@H](CCCNC(=N)N)NC(=O)[C@H](Cc1c[nH]c2ccccc12)NC(=O)[C@H](CCCNC(=N)N)NC(=O)[C@H](Cc1c[nH]c2ccccc12)NC(=O)[C@H](Cc1c[nH]c2ccccc12)NC(=O)[C@H](Cc1c[nH]c2ccccc12)NC(=O)[C@H](CCCNC(=N)N)NC(=O)[C@H](Cc1c[nH]c2ccccc12)NC(=O)[C@@H](N)CCCNC(=N)N)C(N)=O` gave an MIC of 16 µM (≈ 27 µg/mL) (Candida albicans; broth microdilution; 56452, RPMI 1640-MOPS; 48 h, 30 °C).
For `Cc1nc(Nc2ncc(C(=O)Nc3c(C)cccc3Cl)s2)cc(N2CCN(CCO)CC2)n1`, the maximum inhibition was 0% (human coronavirus OC43; virus-induced cell killing; MRC-5; maximum over 10 doses).
For `COc1cnc(OC)n2nc(NS(=O)(=O)c3c(OCC(F)F)cccc3C(F)(F)F)nc12`, the inhibition was 97.9% and 91.8% and 97.8% (Amaranthus retroflexus; fresh weight; 150 g ai/ha, post-emergence treatment).
`Cn1c(=O)ccc2ccc(F)c(CCNC[C@H]3CN(c4cnc5c(n4)NC(=O)CO5)C(=O)O3)c21` gave an MIC90 of under 0.015 µg/mL (Fusobacterium spp.).
The IC50 of `Nc1nc2c(ncn2COCCO)c(=O)[nH]1` is reported as 73.1 ± 1.04 µM (human alphaherpesvirus 2; viral replication, RT-qPCR; HeLa, resistant to compound).
`CN1CCN(Cc2cc(NC(=O)c3ccc4c(c3)CN(c3ccccc3)CC4)cc(C(F)(F)F)c2)CC1` has an inhibition of 5% (mouse hepatitis virus; viral replication; nanoluciferase reporter; 1 µM).
`CC[C@H](C)[C@H](NC(=O)[C@H](C)NC(=O)[C@H](CCCCN)NC(=O)[C@H](CC(C)C)NC(=O)[C@H](C)NC(=O)[C@@H](NC(=O)[C@H](Cc1c[nH]cn1)NC(=O)[C@H](CC(C)C)NC(=O)[C@@H](NC(=O)[C@@H](NC(=O)[C@H](CCCCN)NC(=O)[C@H](C)NC(=O)[C@H](C)NC(=O)[C@H](CO)NC(=O)[C@H](CCCCN)NC(=O)[C@H](Cc1ccccc1)NC(=O)[C@@H](NC(=O)[C@H](CCCCN)NC(=O)[C@H](CC(C)C)NC(=O)[C@H](Cc1ccccc1)NC(=O)[C@H](CO)NC(=O)[C@H](CCCCN)NC(=O)[C@H](Cc1c[nH]c2ccccc12)NC(=O)[C@H](CCCCN)NC(C)=O)[C@@H](C)O)[C@@H](C)O)C(C)C)[C@@H](C)O)C(=O)N[C@@H](CO)C(=O)N[C@@H](CO)C(N)=O` has an MBC of 8 µg/mL (≈ 2.73 µM) (Klebsiella pneumoniae; ESBL ATCC 700603; range).
With `O=C(NCc1cccc(O)c1)Nc1nc(-c2ccncc2)cs1` the inhibition was 13% (mouse hepatitis virus; viral replication; nanoluciferase reporter; 1 µM).
The combination index of `COC(=O)N[C@H](C(=O)N1CCC[C@H]1c1ncc(-c2ccc(-c3ccc(-c4cnc([C@@H]5CCCN5C(=O)[C@@H](NC(=O)OC)C(C)C)[nH]4)cc3)cc2)[nH]1)C(C)C` is reported as 0.53 (Hepatitis C virus; replicon cells; 75% effect level, with: IFN-alpha, ratio 2.5:1).
`CCNC(=O)c1noc(-c2cc(Cl)c(O)cc2O)c1-c1ccc(OC)cc1` gave a maximum inhibition of 32.2% (human coronavirus OC43; virus-induced cell killing; MRC-5; screen).
`COc1ccc(OC)c(N2C(=O)NC(=O)/C(=C\c3ccc([N+](=O)[O-])s3)C2=O)c1` gave a maximal activity of 29% (Mus musculus; gene silencing, high-content imaging; LDR reporter GFP cells; retest run 2).
`CC(=O)NC[C@H]1CN(c2ccc(N3CCOCC3)c(F)c2)C(=O)O1` has an MIC90 of 1 µg/mL (≈ 2.96 µM) (Staphylococcus, coagulase-negative).
For `CCCN(CCC)CCCNC(=O)C1CCCN(Cc2nc(-c3ccc(Cl)cc3)oc2C)C1` (stereo not shown), the cytotoxicity efficacy was -17.7% (Vero-E6; CellTiter-Glo ATP; concentration not given, 72 h, retest 8-point duplicates; reference: DMSO 0%, hyamine -100%, more negative, more toxic).
`N=C(N)NCCC[C@@H]1NC(=O)[C@H](CCCCNC(=O)c2ccc(CNC34CNCCNCC(N)(CNCCNC3)CNCCNC4)cc2)NC(=O)[C@@H](Cc2ccc(O)cc2)NC(=O)[C@H](CC(=O)O)NC(=O)CNC1=O` [copper-64 labelled] has a tissue uptake of 0.15 ± 0.02 %ID/g (microPET; male athymic nude mouse, PC-3 tumour, muscle; intravenous, 7.4 MBq, 24 h).
`COc1cc2oc([N+](=O)[O-])cc2c2ccccc12` gave an MIC90 of over 32 µg/mL (Mycobacteroides abscessus; REMA; ATCC 19977).
`O=C(NCc1ccccc1)c1ccc(S(=O)(=O)NCc2ccccc2)cc1` gave an inhibition of 31% (mouse hepatitis virus; viral replication; nanoluciferase reporter; 1 µM).
`COc1ccc([C@@]23Oc4cc(OC)cc(OC)c4[C@@]24N=C(C)N[C@@]4(O)[C@H](C(=O)N(C)OC)[C@H]3c2ccccc2)cc1` gave an EC50 of 0.00149 µM (Hepatitis E virus; viral replication; HepG2 HEV-3 replicon, genotype 3 wild boar isolate; 24 h).
`Cc1ccc(CSc2ncnc3c2ccn3[C@@H]2O[C@H](CO)[C@@H](O)[C@H]2O)cc1` gave a survival of 80.1% (Toxoplasma gondii; [3H]uracil incorporation; human fibroblasts, RH wild type; 5 µM).
`C[C@H]1CN(c2n[nH]c3nc(N[C@H]4CC[C@H](NS(=O)(=O)CCC(F)(F)F)CC4)ncc23)CCO1` has a relative abundance of 1.16 (HSPA9 (Homo sapiens, UniProt P38646); inhibitor, Kinobeads competition profiling; 0.8 µM; reference: vehicle).
`COc1ccc2c(ccc3oc([N+](=O)[O-])cc32)c1` has an MIC90 of under 0.25 µg/mL (Salmonella enterica; REMA).
`OC[C@H]1O[C@@H](n2ccc3c(O)ncnc32)[C@H](O)[C@@H]1O` gave a parasite survival of 100% (Toxoplasma gondii; [3H]uracil incorporation; human fibroblasts, adenosine kinase-deficient; 50 µM).
For `NS(=O)(=O)c1cc(C(=O)O)c(NCc2ccco2)cc1Cl`, the maximum inhibition was 11.8% (human coronavirus OC43; virus-induced cell killing; MRC-5; screen).
Under “body temperature change”, `CCCCNCCc1c[nH]c2cccc(O)c12.O=C(O)/C=C/C(=O)O` is recorded as -0.2 ± 0.1 °C (C57BL/6J mice; subcutaneous, 1 mg/kg; reference: pre-session baseline).
For `CSc1cccc(Nc2ncc3cc(-c4c(Cl)cccc4Cl)c(=O)n(C)c3n2)c1`, the maximum inhibition was 47% (human coronavirus OC43; virus-induced cell killing; MRC-5; screen).
`CCCCc1c([N+](=O)[O-])oc2ccc3ccccc3c12` gave an MIC90 of 0.5 µg/mL (≈ 1.86 µM) (Salmonella enterica; REMA).
`Nc1ncnc2c1ncn2[C@@H]1O[C@@H]2COP(=O)(O)O[C@H]3[C@@H](O)[C@H](n4cnc5c(=O)[nH]cnc54)O[C@@H]3COP(=O)(O)O[C@H]2[C@H]1O` has a fold enrichment of 2.7 (West Nile virus; RNA sequencing Reactome analysis, measured: DNA Replication (R-HSA-69306); HFF-1; concentration not given, upregulated pathways, with: West Nile virus infection; reference: WNV-infected without compound).
With `CC(C)C[C@H](NC(=O)CNC(=O)c1cc(Cl)ccc1Cl)B(O)O` the maximum inhibition was 0% (human coronavirus OC43; virus-induced cell killing; MRC-5; maximum over 10 doses).
